Measurements gathered from unrelated publications.
Numbered parts are unrelated; each lists some results of a single study. Values joined by “and” are separate records of one study, mostly repeats; a detail may differ.
UniProt P42679, sequence (whole entry, looked up): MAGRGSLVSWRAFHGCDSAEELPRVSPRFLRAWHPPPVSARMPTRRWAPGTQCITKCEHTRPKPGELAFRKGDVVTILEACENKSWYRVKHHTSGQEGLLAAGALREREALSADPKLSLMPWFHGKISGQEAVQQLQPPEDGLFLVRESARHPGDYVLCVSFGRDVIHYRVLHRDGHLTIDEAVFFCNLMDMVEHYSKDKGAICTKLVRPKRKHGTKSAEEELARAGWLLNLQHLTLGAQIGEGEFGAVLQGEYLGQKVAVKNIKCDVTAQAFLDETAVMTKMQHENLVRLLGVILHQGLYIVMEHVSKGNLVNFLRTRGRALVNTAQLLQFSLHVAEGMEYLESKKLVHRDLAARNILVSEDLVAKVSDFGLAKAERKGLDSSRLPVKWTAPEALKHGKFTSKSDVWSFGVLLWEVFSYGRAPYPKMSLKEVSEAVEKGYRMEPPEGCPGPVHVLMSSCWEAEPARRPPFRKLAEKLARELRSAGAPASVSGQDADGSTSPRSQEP
UniProt P00519, sequence (whole entry, unmodified, looked up): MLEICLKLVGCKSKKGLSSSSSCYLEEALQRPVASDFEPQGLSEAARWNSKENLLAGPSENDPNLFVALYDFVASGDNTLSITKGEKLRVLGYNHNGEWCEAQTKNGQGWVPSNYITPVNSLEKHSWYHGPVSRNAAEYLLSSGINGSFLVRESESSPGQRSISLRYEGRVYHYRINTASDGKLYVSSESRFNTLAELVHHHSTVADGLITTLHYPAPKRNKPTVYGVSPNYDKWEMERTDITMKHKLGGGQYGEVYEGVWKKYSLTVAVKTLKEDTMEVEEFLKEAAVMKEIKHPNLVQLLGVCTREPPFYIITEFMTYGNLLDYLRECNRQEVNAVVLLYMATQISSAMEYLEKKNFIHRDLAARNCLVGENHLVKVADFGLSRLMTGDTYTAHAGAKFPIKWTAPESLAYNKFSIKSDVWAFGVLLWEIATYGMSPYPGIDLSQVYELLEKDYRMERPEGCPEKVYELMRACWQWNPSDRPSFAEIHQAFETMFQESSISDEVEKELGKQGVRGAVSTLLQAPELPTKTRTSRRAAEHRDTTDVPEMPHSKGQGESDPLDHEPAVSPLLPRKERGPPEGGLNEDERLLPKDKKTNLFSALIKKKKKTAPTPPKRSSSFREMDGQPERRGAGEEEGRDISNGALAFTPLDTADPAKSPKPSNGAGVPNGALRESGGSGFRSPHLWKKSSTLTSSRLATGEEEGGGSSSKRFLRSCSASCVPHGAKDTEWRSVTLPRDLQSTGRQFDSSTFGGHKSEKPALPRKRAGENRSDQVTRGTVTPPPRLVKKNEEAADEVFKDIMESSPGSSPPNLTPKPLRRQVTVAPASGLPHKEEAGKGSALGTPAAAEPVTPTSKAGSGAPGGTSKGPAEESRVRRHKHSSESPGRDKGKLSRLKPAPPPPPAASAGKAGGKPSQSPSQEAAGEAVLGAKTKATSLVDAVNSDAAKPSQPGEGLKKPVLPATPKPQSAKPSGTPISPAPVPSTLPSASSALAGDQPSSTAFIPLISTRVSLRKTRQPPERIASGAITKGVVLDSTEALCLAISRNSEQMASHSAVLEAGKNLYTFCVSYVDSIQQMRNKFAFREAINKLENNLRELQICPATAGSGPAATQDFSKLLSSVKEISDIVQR

Block 1
Target: DNA polymerase theta, ATPase domain (POLQ, Homo sapiens, UniProt O75417)
UniProt O75417, sequence (whole entry, unmodified, looked up): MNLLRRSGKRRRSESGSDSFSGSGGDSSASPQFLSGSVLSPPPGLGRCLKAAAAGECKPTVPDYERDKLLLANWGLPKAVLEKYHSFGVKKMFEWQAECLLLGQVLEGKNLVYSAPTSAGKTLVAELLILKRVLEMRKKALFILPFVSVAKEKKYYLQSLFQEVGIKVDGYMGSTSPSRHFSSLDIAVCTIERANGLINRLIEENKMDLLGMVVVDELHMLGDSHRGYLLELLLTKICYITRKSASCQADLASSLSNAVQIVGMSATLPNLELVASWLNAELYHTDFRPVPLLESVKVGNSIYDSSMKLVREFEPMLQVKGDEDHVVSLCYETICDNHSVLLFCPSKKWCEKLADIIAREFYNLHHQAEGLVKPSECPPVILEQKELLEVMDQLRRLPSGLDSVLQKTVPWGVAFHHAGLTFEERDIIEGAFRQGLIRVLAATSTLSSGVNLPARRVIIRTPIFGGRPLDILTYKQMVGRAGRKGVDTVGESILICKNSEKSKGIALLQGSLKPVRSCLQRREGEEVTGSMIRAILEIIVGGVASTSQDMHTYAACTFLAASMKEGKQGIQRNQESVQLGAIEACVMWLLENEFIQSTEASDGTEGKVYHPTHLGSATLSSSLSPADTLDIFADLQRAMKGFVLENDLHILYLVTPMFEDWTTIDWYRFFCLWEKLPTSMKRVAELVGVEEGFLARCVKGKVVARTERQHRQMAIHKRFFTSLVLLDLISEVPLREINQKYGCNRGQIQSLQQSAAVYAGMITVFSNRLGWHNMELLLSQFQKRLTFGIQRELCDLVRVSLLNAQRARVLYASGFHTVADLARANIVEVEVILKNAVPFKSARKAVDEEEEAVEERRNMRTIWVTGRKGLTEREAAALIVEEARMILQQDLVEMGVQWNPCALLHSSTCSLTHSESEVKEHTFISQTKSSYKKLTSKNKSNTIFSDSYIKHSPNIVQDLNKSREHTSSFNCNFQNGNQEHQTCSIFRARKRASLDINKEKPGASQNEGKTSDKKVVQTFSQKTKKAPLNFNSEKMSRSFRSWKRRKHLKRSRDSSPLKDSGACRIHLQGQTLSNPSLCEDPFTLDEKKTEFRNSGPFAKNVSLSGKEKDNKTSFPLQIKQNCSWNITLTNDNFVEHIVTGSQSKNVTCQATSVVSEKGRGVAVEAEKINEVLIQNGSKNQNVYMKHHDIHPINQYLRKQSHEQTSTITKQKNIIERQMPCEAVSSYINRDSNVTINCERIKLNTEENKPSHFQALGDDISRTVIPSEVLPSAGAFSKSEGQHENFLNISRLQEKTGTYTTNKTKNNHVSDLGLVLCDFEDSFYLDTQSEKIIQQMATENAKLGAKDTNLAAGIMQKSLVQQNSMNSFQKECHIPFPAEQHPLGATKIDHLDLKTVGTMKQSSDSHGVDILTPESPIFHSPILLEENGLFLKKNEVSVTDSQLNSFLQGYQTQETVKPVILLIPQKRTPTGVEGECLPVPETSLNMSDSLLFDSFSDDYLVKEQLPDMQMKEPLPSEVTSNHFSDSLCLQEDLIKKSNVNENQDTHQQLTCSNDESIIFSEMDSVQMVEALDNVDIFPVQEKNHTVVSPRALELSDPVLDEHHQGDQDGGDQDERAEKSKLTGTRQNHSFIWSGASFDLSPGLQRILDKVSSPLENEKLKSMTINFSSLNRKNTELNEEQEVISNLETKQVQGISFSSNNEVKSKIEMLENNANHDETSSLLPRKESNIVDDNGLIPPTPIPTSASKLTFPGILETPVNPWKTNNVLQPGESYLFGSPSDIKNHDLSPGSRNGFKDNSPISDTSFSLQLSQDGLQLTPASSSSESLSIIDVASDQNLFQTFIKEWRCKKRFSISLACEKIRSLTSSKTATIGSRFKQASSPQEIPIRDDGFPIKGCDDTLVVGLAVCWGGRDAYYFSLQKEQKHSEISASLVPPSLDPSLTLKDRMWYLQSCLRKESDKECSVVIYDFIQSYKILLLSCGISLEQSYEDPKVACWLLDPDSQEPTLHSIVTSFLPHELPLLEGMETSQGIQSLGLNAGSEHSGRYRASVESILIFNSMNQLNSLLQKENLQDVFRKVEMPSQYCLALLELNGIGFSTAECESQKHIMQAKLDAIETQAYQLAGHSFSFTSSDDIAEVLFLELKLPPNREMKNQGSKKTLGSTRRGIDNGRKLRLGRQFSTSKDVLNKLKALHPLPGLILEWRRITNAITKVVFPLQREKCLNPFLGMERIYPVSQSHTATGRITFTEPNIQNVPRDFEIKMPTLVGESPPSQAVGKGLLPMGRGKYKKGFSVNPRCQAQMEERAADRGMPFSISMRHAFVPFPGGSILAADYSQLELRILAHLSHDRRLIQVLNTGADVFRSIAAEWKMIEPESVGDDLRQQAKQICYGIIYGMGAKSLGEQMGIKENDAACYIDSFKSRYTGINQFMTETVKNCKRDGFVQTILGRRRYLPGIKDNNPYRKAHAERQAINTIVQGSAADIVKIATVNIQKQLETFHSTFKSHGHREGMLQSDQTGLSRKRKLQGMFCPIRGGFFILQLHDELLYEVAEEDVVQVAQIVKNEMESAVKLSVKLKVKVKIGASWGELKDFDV
Read-out: enzyme activity
Action: inhibitor
Tested at: 77 µM
Baseline: untreated
Endpoint: remaining activity
CC[C@H](c1ccc(O)cc1)[C@@H](CC)c1ccc(O)cc1: 103% and 92.7%
CC(=O)CC(c1ccc([N+](=O)[O-])cc1)c1c(O)c2ccccc2oc1=O (stereo not shown): 86.6%
COC1(C2=NCCN2)COc2ccccc2O1 (stereo not shown): 106%
Cc1cc2c(C(=O)NC[C@H](C)c3ccccc3)c(O)c(O)cc2c(O)c1-c1c(C)cc2c(C(=O)NC[C@H](C)c3ccccc3)c(O)c(O)cc2c1O: 93%
COc1ccc(NS(=O)(=O)c2ccc(N)cc2)nn1: 94.8% and 99.9%
COc1cc(NC(C)CCCN)c2ncccc2c1 (stereo not shown): 89.4% and 97%
OCC(O)CN1CCN(c2ccccc2)CC1 (racemic): 102%
CCOC(=O)NCCCC(=O)NCCc1ccccc1: 99.5%
CCCCC[C@H](O)/C=C/[C@@H]1[C@@H](C/C=C\CCCC(=O)O)[C@@H](O)C[C@H]1O: 100%

Block 2
Target: 5-hydroxytryptamine receptor 1D (HTR1D, Homo sapiens, UniProt P28221)
UniProt P28221, sequence (whole entry, looked up): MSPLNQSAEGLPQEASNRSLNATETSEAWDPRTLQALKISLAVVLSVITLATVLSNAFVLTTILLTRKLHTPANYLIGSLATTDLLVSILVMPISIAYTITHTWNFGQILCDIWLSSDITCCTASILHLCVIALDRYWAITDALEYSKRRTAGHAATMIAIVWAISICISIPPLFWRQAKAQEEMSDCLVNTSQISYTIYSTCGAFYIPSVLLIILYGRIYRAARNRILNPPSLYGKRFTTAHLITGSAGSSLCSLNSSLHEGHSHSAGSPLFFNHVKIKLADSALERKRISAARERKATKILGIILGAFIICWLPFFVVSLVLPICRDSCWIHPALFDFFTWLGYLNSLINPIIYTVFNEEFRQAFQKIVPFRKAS
Read-out: ligand displacement
Technique: radioligand
Tested at: 10 µM
Endpoint: inhibition
CC(=O)c1c(NS(C)(=O)=O)c2cc(-c3ccc(Cl)cc3)c(-c3ccc(Cl)cc3Cl)nc2n(C)c1=O: 68.5%
CCc1ccccc1C(=O)Nc1n[nH]c2c(C)c(F)c(C3C(C#N)=C(C)N(C)C(C)=C3C#N)cc12: 4.65%
CC1=C(C#N)[C@@H](c2ccc3[nH]nc(C)c3c2)C(C#N)=C(c2ccc(Cl)cc2)N1: 4.2%
O=C(NCc1ncc(C(F)(F)F)cc1Cl)c1ccc2c(c1)C1(CCS(=O)(=O)CC1)[C@@H](C1CC1)N2S(=O)(=O)c1ccc(F)cc1: -16.3%
CCC(=N\O)/C(C)=C/c1ccc(F)cc1: 13.9%
COc1cccc(CNC(=O)c2nc3scc(COCc4ccc(C(=O)O)cc4)c3c(=O)[nH]2)c1: -1.39%
CC(C)CC(=O)N1CCc2nc(-c3ccc(Br)cc3)nc(N(C)Cc3ccccc3)c2C1: 22.6%
O=C(Nc1cccnn1)N1CCC(=Cc2cccc(Oc3ccc(C(F)(F)F)cn3)c2)CC1: 42.1%
C[C@H](NC(=O)Nc1cc2[nH]ncc2c(CO)n1)c1ccccn1: 39.9%
Cc1c(C(=O)O)cc(-c2ccc(C3CCNCC3)cc2)c2ccc(-c3ccc(C(F)(F)F)cc3)cc12: 30.1%
c1ccc(N2CCN(Cc3nc4ccccc4[nH]3)CC2)nc1: -11.2%
CN(C)C(=O)Cn1cc(-c2nc(C3(c4ccc(-c5cnc(N)nc5)cc4)CC3)no2)cn1: -3.06%
O=C1NC(c2ccccn2)Sc2ccccc21 (stereo not shown): -4.84%
O=C(Nc1cccnn1)N1CC(CC=Cc2cncc(Oc3ccc(C(F)(F)F)cn3)n2)C1: -2.98%
CN(C)CC#Cc1ccc(OCCCc2sc(N3CCc4cccc(C(=O)Nc5nc6ccccc6s5)c4C3)nc2C(=O)O)c(F)c1: 34.5%
Cc1cc(NC(=O)c2cccc(S(F)(F)(F)(F)F)c2)cc(-n2ccn3nc(-c4cccnc4)cc23)c1: -7.56%
CNC(=O)Nc1ccc2c(c1)C1(CC2)OC(=O)N(CC(=O)N(Cc2ccc(F)cc2)[C@@H](C)C(F)(F)F)C1=O (single isomer, unassigned): 2.22%
CNCc1ccccc1-c1csc([C@H](C)Nc2nc(C)nc3cc(OC)c(OC)cc23)c1: 98.9%
N#Cc1ccc(Nc2ccc3[nH]c(=O)[nH]c3c2)c(Cl)c1: 3.68%
O=C(N[C@H]1CCCCC/C=C\C2C[C@@]2(C(=O)O)NC(=O)[C@@H]2C[C@@H](Oc3ccncc3)CN2C1=O)OC1CCCC1 (stereo partly shown): 3.22%

Block 3
Target: Calcium/calmodulin-dependent protein kinase type II subunit alpha (CAMK2A, Homo sapiens, UniProt Q9UQM7)
UniProt Q9UQM7, sequence (whole entry, looked up): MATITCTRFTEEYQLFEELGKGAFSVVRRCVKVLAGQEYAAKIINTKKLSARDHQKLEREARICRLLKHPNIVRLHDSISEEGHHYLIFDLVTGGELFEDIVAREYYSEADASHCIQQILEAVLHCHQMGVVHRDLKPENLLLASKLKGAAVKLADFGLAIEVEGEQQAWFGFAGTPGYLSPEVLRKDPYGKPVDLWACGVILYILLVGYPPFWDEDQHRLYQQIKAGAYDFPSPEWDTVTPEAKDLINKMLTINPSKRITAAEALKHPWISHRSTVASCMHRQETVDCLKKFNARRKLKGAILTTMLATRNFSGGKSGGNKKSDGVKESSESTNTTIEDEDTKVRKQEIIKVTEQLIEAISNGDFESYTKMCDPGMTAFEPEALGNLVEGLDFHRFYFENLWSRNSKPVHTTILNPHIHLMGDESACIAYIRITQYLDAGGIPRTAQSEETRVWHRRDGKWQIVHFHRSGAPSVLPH
Read-out: enzyme activity
Action: inhibitor
Tested at: 10 µM
Endpoint: inhibition
COc1ccc(-c2coc3cc(O)cc(O)c3c2=O)cc1: -26%
O=C(CCBr)N1CCN(C(=O)CCBr)CC1: 5%
CC(C)n1c(=O)cc(N[C@@H](C)c2ccccc2)[nH]c1=O: -5%
COC(=O)[C@H]1O[C@@H](Oc2cc3oc(-c4ccccc4)cc(=O)c3c(O)c2O)[C@H](O)[C@@H](O)[C@@H]1O: -5%
COC(=O)C1=C(C)NC(C)=C(C(=O)OC)C1c1ccccc1[N+](=O)[O-]: -3%
NCC(O)CCC(N)C(=O)O (racemic): 8%
N=C(N)NS(=O)(=O)c1ccc(N)cc1: -10%
C=C1CC[C@@H]2[C@](C)(CO[C@@H]3O[C@H](CO)[C@@H](O)[C@H](O)[C@H]3O)CCC[C@@]2(C)[C@@H]1CCC1=CCOC1=O: -1%
COc1ccc(-c2coc3cc(O)c(OC)c(O)c3c2=O)cc1O: -21%
CCOC(=O)CC(=O)O: -11%
CCOC(=O)C(=O)C(C)C(=O)OCC (stereo not shown): -14%
C/C=C(/C)C(=O)O: -38%
CC1CCCCC1=O (stereo not shown): 56%

Block 4
SMILES: Cc1ccc(NC(=O)c2ccnc(C(F)(F)F)c2)cc1-c1cc(OCCO)nc(N2CCOCC2)c1
Tested at: 1 µM
Endpoint: remaining binding
Aurora kinase C (AURKC, Homo sapiens, UniProt Q9UQB9); competitive binding panel; baseline: vehicle: 83%
MAP3K1 (Homo sapiens, UniProt Q13233); competitive binding panel; baseline: vehicle: 100%
MAPK12 (Homo sapiens, UniProt P53778); competitive binding, scanMAX; p38-gamma, 1000 nM: 96%
MAPK15 (Homo sapiens, UniProt Q8TD08); competitive binding panel, measured: ERK8; baseline: vehicle: 86%
MAPK8 (Homo sapiens, UniProt P45983); competitive binding; JNK1: 80%
MATK (Homo sapiens, UniProt P42679); competitive binding; CTK: 90%
ACVRL1 (Homo sapiens, UniProt P37023); competitive binding panel; baseline: vehicle: 100%
STK35 (Homo sapiens, UniProt Q8TDR2); competitive binding panel; baseline: vehicle: 98%
PAK5 (Homo sapiens, UniProt Q9P286); competitive binding panel, measured: PAK7; baseline: vehicle: 97%
NIM1K (Homo sapiens, UniProt Q8IY84); competitive binding, DiscoverX scanMAX binding: 84%
PAK3 (Homo sapiens, UniProt O75914); competitive binding panel; baseline: vehicle: 26%
PLK4 (Homo sapiens, UniProt O00444); competitive binding panel; baseline: vehicle: 75%
EIF2AK1 (Homo sapiens, UniProt Q9BQI3); competitive binding panel; baseline: vehicle: 94%
CAMK2B (Homo sapiens, UniProt Q13554); competitive binding panel; baseline: vehicle: 95%
MAP2K2 (Homo sapiens, UniProt P36507); competitive binding panel, measured: MEK2; baseline: vehicle: 89%
ABL1 (Homo sapiens, UniProt P00519, F317L); competitive binding panel; baseline: vehicle: 84%
WNK1 (Homo sapiens, UniProt Q9H4A3); competitive binding panel; baseline: vehicle: 84%
BTK (Homo sapiens, UniProt Q06187); competitive binding panel; baseline: vehicle: 87%
LIM domain kinase 1 (LIMK1, Homo sapiens, UniProt P53667); competitive binding panel; baseline: vehicle: 92%

Repeated from above (block 4):
PAK5 (Homo sapiens, UniProt Q9P286); competitive binding panel, measured: PAK7; baseline: vehicle: 97%
ACVRL1 (Homo sapiens, UniProt P37023); competitive binding panel; baseline: vehicle: 100%
BTK (Homo sapiens, UniProt Q06187); competitive binding panel; baseline: vehicle: 87%
MAPK8 (Homo sapiens, UniProt P45983); competitive binding; JNK1: 80%
LIM domain kinase 1 (LIMK1, Homo sapiens, UniProt P53667); competitive binding panel; baseline: vehicle: 92%
MAPK12 (Homo sapiens, UniProt P53778); competitive binding, scanMAX; p38-gamma, 1000 nM: 96%
NIM1K (Homo sapiens, UniProt Q8IY84); competitive binding, DiscoverX scanMAX binding: 84%
